Assay results collected from several papers.
Parts stem from different laboratories: compare values within a part only. Substitutions count along the parent as printed.

Set 1 — method: protein-binding microarray; molecule type: double-stranded DNA, one strand shown; sample: in vitro; tested at: 2540 nM top; setting: 60-bp whole probe; added: salmon DNA 0.4 mg/ml; relative to: random background probes; direction: higher = stronger binding; all sequences stand within: GCCTAGCAC … GTCTTGATTCGCTTGACGCTGCTG
Target: Interferon regulatory factor 3, full length, phosphomimetic (IRF3, Homo sapiens, UniProt Q14653, residues 1-427, S386D/S396D/S398D/S402D/T404D/S405D)
Residues (chain): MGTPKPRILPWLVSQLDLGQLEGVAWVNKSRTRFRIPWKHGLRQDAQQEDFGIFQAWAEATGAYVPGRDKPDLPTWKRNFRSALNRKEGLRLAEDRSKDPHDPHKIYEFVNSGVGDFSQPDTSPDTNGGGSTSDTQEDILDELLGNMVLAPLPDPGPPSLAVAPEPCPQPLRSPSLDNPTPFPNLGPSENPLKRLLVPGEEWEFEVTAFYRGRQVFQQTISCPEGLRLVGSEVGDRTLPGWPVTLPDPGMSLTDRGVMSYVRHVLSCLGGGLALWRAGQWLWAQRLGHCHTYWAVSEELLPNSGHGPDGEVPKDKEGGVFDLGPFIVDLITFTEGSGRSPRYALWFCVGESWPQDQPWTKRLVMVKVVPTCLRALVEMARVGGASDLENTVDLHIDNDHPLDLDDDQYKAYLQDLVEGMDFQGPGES
Strand | fitted relative affinity
TCCTCTTTCACTGCTCCCCACGTGCTA | 1.95 z-score
CTGCCTGGCCAAGCCCAGATGTGCTAG | -0.874 z-score
TTAGATTTCGGGACTGGATTGGTGCTA | 1.24 z-score
GACGAACTGAGACTGAAGACGTGCTAG | -0.107 z-score
TTAGGTTTCGATACTGGGTTAGTGCTA | 6.37 z-score
GACGATTTCAATTTCGAGACGTGCTAG | 2.63 z-score
TTAGGTATCGGGACTGGGGTAGTGCTA | 1.05 z-score
TTAGGACTGGACTACCGGTTAGTGCTA | -0.581 z-score
TTAGGTTTCTGTCTCGGTTAGTGCTAG | 4.74 z-score
GACGGTACCGACTATCGGGACGTGCTA | 1.06 z-score
TTAGATCTCATTATCGATTAGTGCTAG | 1.06 z-score
TTAGGTTTCCTACTGCTGTAGTGCTAG | 5.05 z-score
TTAGGTATCGTGTTTCGGTTAGTGCTA | 2.87 z-score
TCTCCTACAGGTTCTCTGAGAGTGCTA | 0.37 z-score
TCAAATTTTTGCATCGTACTGTGCTAG | -0.0339 z-score
GACGGTTTAGGGTATCGGGACGTGCTA | 0.642 z-score
GACGGTATCCTTTTCCGGACGTGCTAG | 7.69 z-score
TTAGGTCTCCTACTGCATTAGTGCTAG | 0.841 z-score
ACCTCTCACGCATCTGAAACCGTGCTA | 0.515 z-score

Set 2 — method: universal PBM; molecule type: double-stranded DNA, one strand shown; sample: in vitro; tested at: not given; direction: higher = stronger binding
Target: Sal-like protein 4, full length isoform B (SALL4, Homo sapiens, UniProt Q9UJQ4-2, residues 1-616)
Setting: 8-mer, flanks averaged, mean of replicates
Strand | E-score
AGGGGGTC | -0.23
ACACGGCA | -0.179
CCAAACAG | -0.119
GCGATCCA | -0.143
AGCACATC | -0.0181
ATGGGACC | -0.0785
AAATTGAT | 0.287
CGCTGTAG | -0.275
AGCCCGGG | -0.402
AGTAAATG | 0.174
AGCATACC | -0.00605
CAACACTA | 0.0546
ACAATAAG | 0.277
AAACTGGG | -0.17
GGGTGATA | 0.0443
GTTAGCTA | -0.209
GAAAAACA | 0.141
AGACCGCC | -0.145
CCTAACTC | -0.189
AACGGCTG | -0.127
TGATAACA | 0.294
AAATTCGC | 0.0808
TAATTCCA | 0.193
ACGTGAGA | 0.0936
CACGGTTC | -0.211

Set 3 — target: CCNB2, cyclin fold, Cln2 fusion (human); method: yeast growth competition, sequencing; sample: yeast; setting: weak parent motif; relative to: not given; direction: higher = stronger binding
Parent: RBL1 docking peptide (human); GSAKRRLFGEDPP
Variant | normalised enrichment score
A3Q | -0.0947
A3P | -0.432
P12F | -0.0311
G1M | -0.567
P13K | 0.155
P12N | 0.413
K4F | 0.771
K4D | -0.683
D11I | -0.293
S2C | 0.69
G9M | 0.22
P13F | 0.089
S2G | 0.112
G9D | 0.403
D11R | 0.0728
A3M | -0.136
S2H | 0.267
G1V | 1

Set 4 — method: DHFR PCA, deep sequencing; sample: yeast; added: (+)-ABA 710 µM; relative to: wild-type fitted maximum; direction: higher = stronger binding
Target: ABI1, truncated, D143A, DHFR fusion (Arabidopsis thaliana)
Setting: methotrexate growth selection, single substitutions
Parent: PYL1, truncated, DHFR fusion (Arabidopsis thaliana); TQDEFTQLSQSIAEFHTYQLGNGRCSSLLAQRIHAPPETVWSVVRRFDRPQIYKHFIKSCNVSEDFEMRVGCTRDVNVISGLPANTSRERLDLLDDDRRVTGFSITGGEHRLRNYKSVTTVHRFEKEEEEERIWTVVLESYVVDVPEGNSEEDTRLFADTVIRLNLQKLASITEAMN; partner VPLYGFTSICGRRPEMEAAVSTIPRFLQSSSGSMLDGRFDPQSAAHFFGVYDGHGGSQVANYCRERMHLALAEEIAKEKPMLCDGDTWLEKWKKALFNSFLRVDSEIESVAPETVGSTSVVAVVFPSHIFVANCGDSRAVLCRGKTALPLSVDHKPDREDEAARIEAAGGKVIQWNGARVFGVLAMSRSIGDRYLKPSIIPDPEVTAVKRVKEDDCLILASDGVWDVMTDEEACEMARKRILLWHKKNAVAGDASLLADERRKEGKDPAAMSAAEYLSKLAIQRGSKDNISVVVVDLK
Variant | relative binding score [%]
A13K | 90.1
R88A | 101
T101Q | 72.9
E67L | 96.8
T135I | 18.7
R46Y | 74.2
T73P | 60.8
D144R | 75.1
Y18R | 94.6
Q51W | 105
S150L | 87.6
D75N | 97.4

Excerpt of the above (set 1):
Strand | fitted relative affinity
ACCTCTCACGCATCTGAAACCGTGCTA | 0.515 z-score
GACGAACTGAGACTGAAGACGTGCTAG | -0.107 z-score
GACGGTATCCTTTTCCGGACGTGCTAG | 7.69 z-score
TCTCCTACAGGTTCTCTGAGAGTGCTA | 0.37 z-score
TTAGGTATCGTGTTTCGGTTAGTGCTA | 2.87 z-score
